Measured values collected from several papers.
Protocols differ between the studies behind these lines. ± gives the spread as reported.

`CCc1cc(C(=O)NC)c2nccc(N3CCc4c(cc(Cn5ccnc5)cc4-c4cn(C)nc4C(F)(F)F)C3=O)c2c1` has a body weight of 226 ± 8.2 g (Sprague Dawley rat; oral, 50 mg/kg once daily, day 2, 7-day toxicology study).
For `COc1ccc2c(=O)n(C)c(-c3ccccc3)nc2c1`, the tissue/plasma ratio was 58.9 (Sprague-Dawley rat, male, liver; oral, 30 mg/kg, 0.25 h; reference: liver over plasma).
Under “apparent volume of distribution”, `CN(CC#N)C(=O)C[C@H](Nc1nc2ccccc2[nH]1)c1cccc(C(F)(F)F)c1` is recorded as 81.9 ± 34.1 L (human; intravenous infusion, 2 mg/kg, 10 mg/mL formulation).
`O=C(Nc1nc2cccc(-c3ccc(CN4CCS(=O)(=O)CC4)cc3)n2n1)C1CC1`: “treatment-emergent adverse events” 0% (measured: injection site haematoma; human rheumatoid arthritis patients; oral, 200 mg once daily, 4 weeks, regardless of relatedness).
For `CC(C)[C@@H](CS(=O)(=O)C(C)C)N1C(=O)[C@@](C)(CC(=O)O)C[C@H](c2cccc(Cl)c2)[C@H]1c1ccc(Cl)cc1`, “brain distribution advantage” read 33.5 (FVB mouse, Abcb1a/b knockout, brain; intravenous, 20 mg/kg, unit not given; reference: knockout Kp over wild-type Kp).
For `c1cc2ccc3ccc4ccc5cccc6c(c1)c2c3c4c56`, “literature range factor” read 4 (PDMS-water partitioning; PAH compilation; reference: maximum over minimum K).
`CNC(=O)c1ccc(-c2cnc3ncc(Cc4ccc5ncccc5c4)n3n2)cc1F`: “abdominal pain incidence” 6% (other cancer patients; oral, 600 mg twice daily, all grades RP2D expansion).
For `Cn1cc(-c2ccc(S(=O)(=O)[C@@H]3C[C@@H](C(=O)NC4(C#N)CC4)N(C(=O)C4(C(F)(F)F)CC4)C3)c(C(F)(F)F)c2)cn1`, the t_half was 606 min (noncompartmental analysis; human, plasma; oral, 200 mg, day 1, with food, geometric mean).
Under “grade ≥3 dysphagia patients”, `Cc1ccc(C(=O)N(CCCN)C(c2nc3snc(C)c3c(=O)n2Cc2ccccc2)C(C)C)cc1` (stereo not shown) is recorded as 0% (human patients; intravenous, 7 mg/day).
`COc1cccc(OC)c1-c1cc(C(=O)NC2(C(=O)O)C3CC4CC(C3)CC2C4)nn1-c1ccc(C(=O)N(C)CCCN(C)CCCN(C)C(=O)CN2CCN(CC(=O)[O-])CCN(CC(=O)[O-])CCN(CC(=O)[O-])CC2)cc1C(C)C.[177Lu+3]` (stereo not shown) has a tissue uptake of 2.8 %ID/g (mouse, HT-29 xenograft, spleen; 4 h post injection).
The AUC of `O=C(COc1ccc(Cl)cc1)NC12CC(c3nnc([C@H]4C[C@@H](OC(F)(F)F)C4)o3)(C1)C2` is reported as 337 µM·h (healthy human volunteers fasted, plasma; oral, 400 mg single dose, geometric mean).
`Cc1cc(-c2nnc(N)nc2-c2ccc(F)cc2)cc(Cl)n1` — result for “patients with immune-mediated AE”: 0% (measured: Colitis; IO-naive colorectal cancer patients; oral, dose not given, treatment-related, grade 1).
`CN1CC(=O)N2[C@H](c3ccc4c(c3)OCO4)c3[nH]c4ccccc4c3C[C@@H]2C1=O` has an accuracy of 99.2% (human plasma; 400 ng/mL, 74 days, long-term storage -20 °C).
`C[C@@H](N)C1CCN(S(=O)(=O)c2cccc3cnccc23)CC1` — result for “participants with headache”: 16.7% (healthy volunteers; 250 mg, fasted).
`COc1cc2nccc(Oc3ccc(NC(=O)c4cc5c(n(-c6ccccc6)c4=O)CCCC5=O)nc3)c2cc1OC` — result for “grade ≥3 Thrombocytopenia patients”: 0% (relapsed or refractory AML; oral, 10 mg once daily).
Under “micronucleated PCE per 14000 PCE”, `Cc1nc2cccc(OCC(C)(C)C(=O)NC(C)C)c2c(N)c1C(=O)O` is recorded as 9 (male Swiss albino CD-1 mouse, bone marrow; oral, 1000 mg/kg, 36 h).
`CCOC(=O)c1c(NC(=O)CNC(C)C)sc2c1CCCCC2` — result for “brain AUC(0-0.5 h)”: 94.8 ng·h/g (mouse, brain; intraperitoneal, 5 mg/kg).
With `CN(C(=O)n1cnc(-c2ccc[n+]([O-])c2)c1)[C@H]1CC[C@H](O)CC1` the concentration was 13.8 ± 0.3 ng/g (Wistar rat, midbrain; oral, 10 mg/kg/day of BIA 10-2474, 24 h, repeated 5 days).
With `Cc1ccc(N(C)C(=O)/C=C/c2ccco2)cc1` the licking latency was 19.8 ± 0.5 s (cold plate test; mice; oral, 30 mg/kg daily for 7 days, 60 min after dose, day 8).
Under “urinary sodium excretion change”, `Cc1ccc([C@@H]2O[C@H](CO)[C@@H](O)[C@H](O)[C@H]2O)cc1Cc1ccc(-c2ccc(F)cc2)s1` is recorded as 51.8 mEq (Japanese type 2 diabetes patients; 25 mg, day 15, 24 h urine collection; reference: baseline).
Under “unbound plasma concentration”, `COc1ccc2c(c1)CN(C(=O)CCN1CCC(Cc3ccccc3)CC1)CC[S@@+]2[O-]` is recorded as 7.51 µM (beagle dog, male, plasma; intravenous, 8 mg/kg, day 1, 14-day toxicity study).
Under “amount excreted in urine”, `C=CC(=O)Nc1cc(Nc2ncc(C(=O)OC(C)C)c(-c3cn(C)c4ccccc34)n2)c(OC)cc1N(C)CCN(C)C` is recorded as 0.53 mg (healthy human, urine; oral, 40 mg single dose, 0-48 h, arithmetic mean).
For `Cc1cc(NC2CCN(C(=O)OC3CCN(C(=O)/C=C/CN(C)C)C3)CC2)n2ncc(C(C)C)c2n1` (stereo not shown), “patients with Vomiting” read 2% (patients with advanced solid tumours; dose not given, QD arm, grade 3 or higher).
`CC[C@@H]([C@H](C)O)n1ncn(-c2ccc(N3CCN(c4ccc(OC[C@@H]5CO[C@@](Cn6cncn6)(c6ccc(F)cc6F)C5)cc4)CC3)cc2)c1=O` — result for “stability relative error”: -1.3% (rat plasma; 800 ng/mL, 4 h, 10 °C, autosampler; reference: nominal concentration).
With `COc1ncc(-c2nc3c(n2C(C)C)[C@H](c2ccc(Cl)cc2)N(c2cc(Cl)cn(C)c2=O)C3=O)c(OC)n1` the Cmax was 393 ng/mL (LC-MS/MS; human, plasma; oral, 45 mg, cycle 2 day 1, low-dose arm).
`COc1cc(Nc2ncc3c(n2)-c2ccc(Cl)cc2C(c2c(F)cccc2OC)=NC3)ccc1C(=O)O`: “patients with adverse event” 17% (measured: Hypophosphatemia, grade 1; cancer patients, phase 1/2; oral, dose not given, together with: pembrolizumab).
`Cc1c(-c2ccc(N3CCc4cccc(C(=O)Nc5nc6ccccc6s5)c4C3)nc2C(=O)O)cnn1CC12CC3(C)CC(C)(C1)CC(OCCNCC[C@H](O)CO)(C3)C2` — result for “systemic vascular resistance change”: -9% (anaesthetised male beagle dogs; intravenous infusion, 0.3 mg/kg/min, 120 min; reference: vehicle).
The androstenedione level of `N#Cc1ccc2c(c1)[C@H]1CCCN(C(=O)c3ccc4[nH]cnc4c3)[C@H]1C2` is reported as 7 nmol/L (human, male; 160 mg, end of trial).
The AUClast of `CO[C@H]1C[C@@H]2CC[C@@H](C)[C@@](O)(O2)C(=O)C(=O)N2CCCC[C@H]2C(=O)O[C@H]([C@H](C)C[C@@H]2CC[C@@H](OC(=O)NCCOCCOCCOCCOCCOCCOCCOCCOCCC(=O)N3CCc4cc(Cn5nc(-c6ccc7oc(N)nc7c6)c6c(N)ncnc65)ccc4C3)[C@H](OC)C2)C[C@@H](O)[C@H](C)/C=C(\C)[C@@H](O)[C@@H](OC)C(=O)[C@H](C)C[C@H](C)/C=C/C=C/C=C/1C` is reported as 695 ng·h/mL (human patients, plasma; intravenous, 10 mg, cycle 1 day 15, weekly dosing, 1 h infusion, arithmetic mean).
`CC(C)(Sc1ccncc1-c1ccc(C#N)c2ccccc12)C(=O)O`: “amount excreted in urine (0-24 h)” 153 µg (human, urine; oral, 10 mg, together with: febuxostat 40 mg).
With `COC(=O)C1=CO[C@@H](O[C@@H]2O[C@H](CO)[C@@H](O)[C@H](O)[C@H]2O)[C@@H]2C(CO)=CC[C@H]12` the accuracy was 97.3% (post-procedure stability; rat plasma; 1000 ng/mL, 1 h, room temperature).
`COc1cc(C(=O)NC2CCN(C)CC2)c(F)cc1Nc1ncc(C(F)(F)F)c(Oc2cccc3c2C(=O)N(C)C3)n1`: “renal clearance (0-24 h)” 19.7 mL/min (human patients, urine and plasma; oral, 50 mg single dose, geometric mean).
`CNCCOC12CC3(C)CC(C)(CC(Cn4ncc(-c5ccc(N6CCc7cccc(C(=O)Nc8nc9ccccc9s8)c7C6)nc5C(=O)O)c4C)(C3)C1)C2` — result for “cardiac output change”: -14% (anaesthetised male beagle dogs; intravenous bolus, 0.03 mg/kg, 45 min; reference: baseline).
`C=C[C@@](C)(/C=C/c1ccc(O)cc1)CCC=C(C)C` has an accuracy of 115% (post-procedure stability; rat plasma; 8 ng/mL, 3 h, room temperature).

For quick reference, copied from above:
Under “unbound plasma concentration”, `COc1ccc2c(c1)CN(C(=O)CCN1CCC(Cc3ccccc3)CC1)CC[S@@+]2[O-]` is recorded as 7.51 µM (beagle dog, male, plasma; intravenous, 8 mg/kg, day 1, 14-day toxicity study).
For `CC(C)[C@@H](CS(=O)(=O)C(C)C)N1C(=O)[C@@](C)(CC(=O)O)C[C@H](c2cccc(Cl)c2)[C@H]1c1ccc(Cl)cc1`, “brain distribution advantage” read 33.5 (FVB mouse, Abcb1a/b knockout, brain; intravenous, 20 mg/kg, unit not given; reference: knockout Kp over wild-type Kp).
`CCc1cc(C(=O)NC)c2nccc(N3CCc4c(cc(Cn5ccnc5)cc4-c4cn(C)nc4C(F)(F)F)C3=O)c2c1` has a body weight of 226 ± 8.2 g (Sprague Dawley rat; oral, 50 mg/kg once daily, day 2, 7-day toxicology study).
`COc1cc(C(=O)NC2CCN(C)CC2)c(F)cc1Nc1ncc(C(F)(F)F)c(Oc2cccc3c2C(=O)N(C)C3)n1`: “renal clearance (0-24 h)” 19.7 mL/min (human patients, urine and plasma; oral, 50 mg single dose, geometric mean).
